Results from different studies.
Numbered parts are unrelated; each lists some results of a single study.

Study 1 — technique: protein binding microarray; molecule type: double-stranded DNA, one strand shown; matrix: in vitro; concentration: not given; baseline: not given; direction: higher = stronger binding; endpoint: E-score
Target: Histone acetyltransferase KAT6A, winged helix 1, GST fusion (KAT6A, Homo sapiens, UniProt Q92794, residues 1-85)
Notes: 8-mer, flanks averaged, mean of 2 arrays, mostly near background
Residues (chain): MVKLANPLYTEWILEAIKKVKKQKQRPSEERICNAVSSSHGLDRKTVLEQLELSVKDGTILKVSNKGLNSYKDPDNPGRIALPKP
Strand = CACGTGCA; value = -0.148
Strand = AATATAAA; value = -0.0163
Strand = ATCAAGAA; value = -0.168
Strand = GTTTGCCA; value = -0.0265
Strand = CGTAGAGA; value = -0.0334

Study 2 — technique: universal PBM; molecule type: double-stranded DNA, one strand shown; matrix: in vitro; concentration: not given; direction: higher = stronger binding; endpoint: E-score
Target: Sal-like protein 4, full length isoform B (SALL4, Homo sapiens, UniProt Q9UJQ4-2, residues 1-616)
Notes: 8-mer, flanks averaged, mean of replicates
Residues (chain): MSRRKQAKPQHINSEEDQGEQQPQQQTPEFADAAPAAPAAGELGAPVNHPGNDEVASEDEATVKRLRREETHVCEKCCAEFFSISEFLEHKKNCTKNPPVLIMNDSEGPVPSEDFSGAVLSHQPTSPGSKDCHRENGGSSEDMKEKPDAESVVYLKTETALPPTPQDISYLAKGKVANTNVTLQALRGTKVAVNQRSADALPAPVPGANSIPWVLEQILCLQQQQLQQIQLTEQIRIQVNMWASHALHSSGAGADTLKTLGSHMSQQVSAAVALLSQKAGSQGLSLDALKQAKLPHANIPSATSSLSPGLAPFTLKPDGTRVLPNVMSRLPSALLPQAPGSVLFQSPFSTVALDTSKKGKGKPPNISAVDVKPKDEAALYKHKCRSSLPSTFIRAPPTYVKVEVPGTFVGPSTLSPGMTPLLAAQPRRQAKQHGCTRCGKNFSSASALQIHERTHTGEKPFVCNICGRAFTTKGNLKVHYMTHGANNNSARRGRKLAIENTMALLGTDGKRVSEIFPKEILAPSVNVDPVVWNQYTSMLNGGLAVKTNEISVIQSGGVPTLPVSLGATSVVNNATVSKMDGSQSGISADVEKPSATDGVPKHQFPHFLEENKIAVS
Strand = AATCTTTA; value = 0.263
Strand = TCTCTGCA; value = -0.0871
Strand = ACCATGAA; value = 0.00867
Strand = AGGACAAG; value = -0.0725
Strand = GACTCACA; value = -0.0306
Strand = GGCACGAA; value = -0.112

Study 3 — technique: RNA Bind-n-Seq; molecule type: RNA; matrix: in vitro; concentration: not given; notes: RNA with constant flanks, ends assumed; baseline: input RNA pool; direction: higher = stronger binding; endpoint: bound/input enrichment
Target: RING finger protein unkempt homolog, zinc fingers 1-6, GST-SBP tag (UNK, Homo sapiens, UniProt Q9C0B0, residues 30-357)
Sequence of UniProt Q9C0B0 (30-357, looked up): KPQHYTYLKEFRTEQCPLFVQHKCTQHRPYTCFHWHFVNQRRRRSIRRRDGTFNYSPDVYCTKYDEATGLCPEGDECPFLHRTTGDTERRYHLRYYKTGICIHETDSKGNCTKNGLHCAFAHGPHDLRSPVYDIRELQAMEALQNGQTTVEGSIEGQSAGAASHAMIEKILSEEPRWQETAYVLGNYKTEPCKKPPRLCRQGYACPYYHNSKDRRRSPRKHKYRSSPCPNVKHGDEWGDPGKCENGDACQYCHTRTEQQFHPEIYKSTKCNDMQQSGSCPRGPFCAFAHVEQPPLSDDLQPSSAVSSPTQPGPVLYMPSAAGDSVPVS
Strand = GGGAGUUCUACAGUCCGACGAUCAAGUUACAGAUUUUAGCCAGUCUUUGCUUUUAUACUUUUGUGAAAUUUAAUUUCUCUCUACCGCACCUUCCUUUUUCGUUUUCAGUUAUCAAAAGUGACUUUGACCUCAUAAAAGAGUUGCAACAGAGGAUUGAGCAUCA; value = 0.507 ratio
Strand = GGGAGUUCUACAGUCCGACGAUCCACUCCUCGAAGCAGGGUCACCUUUUAGGAAAGGUCCCCCACAGCUACCUCCAGUAGCUUCUCCGUUCGUGGUAGGCUUCAUGAGCCCCUCCCUGCUCUGUGCUGGGAUUUUGACUUCUGCAACAGAGGAUUGAGCAUCA; value = 0.21 ratio
Strand = GGGAGUUCUACAGUCCGACGAUCAGGAUUAACAAUGGACAACACAAAGCCCAGUCUUACUAUUUAUAUGUACAGUAUUUGGUGACCGAGAGCAAAGGAAAAACACAUCAGAACAGUUGCCUUAACACUGAAAAACAUACCCUGCAACAGAGGAUUGAGCAUCA; value = 0.141 ratio

Mixed results
Substance = PhoQ, residues 284 288 289 292 302 303 SIHMAM; target = PhoP, residues 12 14 15 18 19 TPWLV (Escherichia coli, UniProt P23836); assay = Sort-seq, item: YFP reporter; system = E. coli; conditions = PhoQ-PhoP variant library, added: 10 µM Mg2+; how to read = baseline: high Mg2+ state, higher = stronger signaling; endpoint = fold induction; value = 4.79

A few entries again (study 2):
Strand = ACCATGAA; value = 0.00867
